# Experimental data pooled from the literature.
# Each numbered part is a random draw from the data of one study; scales do not carry over between parts. Substitutions count along the parent as printed.

# Series 1
# Target: CCNA2, cyclin fold, Cln2 fusion (human)
# Technique: yeast growth competition, sequencing
# Sample: yeast
# Setting: strong parent motif
# Relative to: not given
# Direction: higher = stronger binding
# Starting sequence: SAMHD1 docking peptide (human); ASKSRVQLFKDDP
Substitution,normalised enrichment score
D11W,1.01
S4K,0.536
K3T,1.63
F9P,0.256
V6H,0.57
V6P,-0.259
S2Q,2.57
S2T,3.42
V6Y,0.37
S4I,4.94
S2W,2.26
K3Y,0.864
K3C,1.47
S4G,1.29
S4Q,0.369
V6Q,1.62
S2Y,2.95
D11C,2.18
K10F,2.65
F9Y,0.451
F9S,0.291
Q7G,0.795
K3E,0.0563

# Series 2
# Target: TAR DNA-binding protein 43, full length, His tag (TARDBP, Homo sapiens, UniProt Q13148, residues 1-414)
# Technique: RNA Bind-n-Seq
# Molecule type: RNA
# Sample: in vitro
# Concentration: 20 nM
# Setting: 6-mer, flanks averaged, single round
# Added: 150 mM KCl
# Relative to: input library
# Direction: higher = stronger binding
Strand,6-mer enrichment (R)
GAGGUC,1.33
GGCUGG,3.52
AAACGG,0.938
UUGGCU,0.721
AAGAAU,0.891
GCCAGA,0.973
AUACGA,0.635
GAACUC,0.738
UAUACG,0.65
GCUUCC,0.625
GAGGUU,1.24
AAAUAU,0.667
CGCAAC,0.685
AUUGCG,0.857
CAUUUG,0.651
ACAGUU,0.612
UUUUAG,0.682
AGAUGA,0.84
CUGACC,0.64
CCUCGC,0.617
CCUCAG,0.668
UUCUUG,0.64

# Series 3
# Target: Prothrombin, mature alpha-thrombin (F2, Homo sapiens, UniProt P00734)
# Technique: aptamer microarray, sandwich
# Molecule type: DNA with 2'F-ANA
# Sample: in vitro
# Concentration: 200 nM
# Setting: whole 15-mer aptamer, many near background
# Added: Cy3 exosite-II aptamer, 400 nM
# Direction: higher = stronger binding
# Strand: GGTTGGTGTGGTTGG
Modification,mean fluorescence intensity
2'F-ANA at 1 2 4 7 9 11 13 14 15,56.1 a.u.
2'F-ANA at 1 3 8 9 10 12,137 a.u.
2'F-ANA at 1 2 5 7 9 10 11 13 14 15,64.3 a.u.
2'F-ANA at 2 3 5 10 11 12 13 14 15,49.2 a.u.
2'F-ANA at 1 3 4 5 6 8 9 10 12 13 14,50.9 a.u.
2'F-ANA at 1 2 3 4 7 9 13 14,60 a.u.
2'F-ANA at 2 4 6 10 12 14,62.1 a.u.
2'F-ANA at 1 2 7 8 9 10 13 14 15,63.5 a.u.
2'F-ANA at 1 3 6 7 10 13 14 15,60.1 a.u.
2'F-ANA at 1 2 4 6 7 8 14 15,86.7 a.u.
2'F-ANA at 4 6 7 8 9 10 12 13 14 15,74.2 a.u.
2'F-ANA at 1 4 7 8 9 10 12 14,45.1 a.u.
2'F-ANA at 2 4 6 13 14 15,78.5 a.u.
2'F-ANA at 1 5 6 7 8 9 14 15,47.3 a.u.
2'F-ANA at 1 3 4 6 8 11 13 14 15,66.7 a.u.
2'F-ANA at 1 5 6 8 9 10 11 12 13 14 15,57.5 a.u.
2'F-ANA at 1 3 6 8 10 11 15,69.8 a.u.
2'F-ANA at 1 3 4 5 8 9 10 11 13 14,44.5 a.u.
2'F-ANA at 2 4 6 7 8 9 12,652 a.u.
2'F-ANA at 2 3 4 5 6 8 13 14,49.2 a.u.
2'F-ANA at 2 3 4 5 12 13 15,128 a.u.
2'F-ANA at 3 6 7 8 10 11 13 15,411 a.u.
2'F-ANA at 1 2 3 4 6 7 12 13 15,235 a.u.
2'F-ANA at 4 5 7 10 13 15,87.3 a.u.
2'F-ANA at 1 5 8 9 10 11 12 13,45.2 a.u.

# Series 4
# Target: UBE2Q2 UBC core domain (UniProt Q8WVN8)
# Sequence of UniProt Q8WVN8 (whole entry, looked up): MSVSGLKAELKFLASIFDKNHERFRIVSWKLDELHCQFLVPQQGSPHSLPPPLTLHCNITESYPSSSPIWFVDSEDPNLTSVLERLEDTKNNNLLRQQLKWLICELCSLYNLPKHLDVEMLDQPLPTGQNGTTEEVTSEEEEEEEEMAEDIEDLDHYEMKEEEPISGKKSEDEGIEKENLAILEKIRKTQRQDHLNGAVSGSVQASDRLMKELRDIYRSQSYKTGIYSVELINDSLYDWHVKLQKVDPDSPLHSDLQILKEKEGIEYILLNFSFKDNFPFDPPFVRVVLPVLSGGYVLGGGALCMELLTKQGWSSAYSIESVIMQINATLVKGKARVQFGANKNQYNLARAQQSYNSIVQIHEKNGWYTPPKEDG
# Technique: yeast two-hybrid
# Sample: yeast
# Setting: mostly zero background
# Relative to: not given
# Direction: higher = stronger interaction
# B1: ARIH1 RING domain (UniProt Q9Y4X5); chain NTRSSAQDMPCQICYLNYPNSYFTGLECGHKFCMQCWSEYLTTKIMEEGMGQTISCPAHGCDILVDDNTVM
# B2: SHPRH RING domain (UniProt Q149N8); chain KTSGGVNPEPCPICARQLGKQWAVLTCGHCFCNECISIIIEQYSVGSHRSSIKCAICRQTTSHKEISY
# B3: RNF32 RING domain (UniProt Q9H0A6); chain VQALRRETHECSICLAPLSAAGGQRVGAGRRSREMALLSCSHVFHHACLLALEEFSVGDRPPFHACPLCRSCYQKKILEC
# B4: RFPL3 RING domain (UniProt O75679); chain MAALFQEASSCPVCSDYLEKPMSLECGCTVCLKCINSLQKEPHGEDLLCCCCSMVSQRNKIRP
# B5: NHLRC1 RING domain (UniProt Q6VVB1); chain MREAEISLLECKVCFEKFGHRQQRRPRNLSCGHVVCLACVAALAHPRTLALECPFCRRACRGCDTSD
# B6: MARCHF2 RING domain (UniProt Q9P0N8); chain RLLSTVIRALDTPSDGPFCRICHEGANGECLLSPCGCTGTLGAVHKSCLEKWLSSSNTSYCELCHTEFAVEKRPRPLTEWL
# B7: TRIM28 RING domain (UniProt Q13263); chain GAEALELLEHCGVCRERLRPEREPRLLPCLHSACSACLGPAAPAAANSSGDGGAAGDGTVVDCPVCKQQCFSKDIVE
# B8: RNF130 RING domain (UniProt Q86XS8); chain DKETDPDFDHCAVCIESYKQNDVVRILPCKHVFHKSCVDPWLSEHCTCPMCKLNILKALGIV
# B9: RNF115 RING domain (UniProt Q9Y4L5); chain TQEQVDMGLECPVCKEDYTVEEEVRQLPCNHFFHSSCIVPWLELHDTCPVCRKSLNGEDSTR
# B10: RNF17 RING domain (UniProt Q9BXT8); chain SQPWGAAEIQCTRCGRRVSRSSGHHCELQCGHAFCELCLLMTEECTTIICPDCEVATAVNTRQR
# B11: TRIM34 RING domain (UniProt Q9BYJ4); chain ILLNVQEEVTCPICLELLTEPLSLDCGHSLCRACITVSNKEAVTSMGGKSSCPVCGISYSFEHLQA
Molecule,lacZ reporter activity
B1 (ARIH1 RING domain),0
B2 (SHPRH RING domain),0
B3 (RNF32 RING domain),0
B4 (RFPL3 RING domain),0
KITELNPHLMCALCGGYFIDATTIVECLHSFCKTCIVRYLETNKYCPMCDVQVHKTRPLL (PCGF2 RING domain (UniProt P35227)),2490
MEEMEEELKCPVCGSFYREPIILPCSHNLCQACARNILVQTPESESPQSHRAAGSGVSDY (TRIM9 RING domain (UniProt Q9C026)),0
B5 (NHLRC1 RING domain),0
B6 (MARCHF2 RING domain),0
B7 (TRIM28 RING domain),0
B8 (RNF130 RING domain),0
B9 (RNF115 RING domain),0
B10 (RNF17 RING domain),0
FLSKVEETFQCICCQELVFRPITTVCQHNVCKDCLDRSFRAQVFSCPACRYDLGRSYAMQ (UHRF1 RING domain (UniProt Q96T88)),0
VPADASPDSKCPICLDRFDNVSYLDRCLHKFCFRCVQEWSKNKAECPLCKQPFDSIFHSV (TOPORS RING domain (UniProt Q9NS56)),0
B11 (TRIM34 RING domain),0

# Series 5
# Target: RNA binding protein fox-1 homolog 2, RRM domain, GST-SBP tag (RBFOX2, Homo sapiens, UniProt O43251-10, residues 100-194)
# Technique: RNA Bind-n-Seq
# Molecule type: RNA
# Sample: in vitro
# Concentration: 365 nM
# Setting: natural RNA segment, single round, ends assumed
# Relative to: no-protein control
# Direction: higher = stronger binding
# All sequences stand within: GGGAGUUCUACAGUCCGACGAUC … UGGAAUUCUCGGGUGCCAA
# Target sequence (chain): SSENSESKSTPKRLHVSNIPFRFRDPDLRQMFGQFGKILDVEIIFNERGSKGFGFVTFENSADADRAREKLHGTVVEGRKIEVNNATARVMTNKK
Strand,RBNS enrichment (R)
UUUUGUAGUUGAUUUUUCCAAGAGCGUCGAAGACUCUCUUUCUCUUGGUUCACCUUGCCUGUCGCUAGCAAGCAUCUGGUUCAGCGGAAAUGGGAUGUGAGAAUGAUGAA,4.66
CUUGCUUAAUGCUUUUGUUGACUCAACAAGGGCCCGAGGCCUUAGGUUUUCUAUUAAGGUCUCUGCCCCAGGCAUGGUGCUCUAUAUCUUGGCCAAAUAAAUUACUUUCC,0.343
UAAGUUAACAAGUCUAUAUCAGGUGCAGCUGGCUUUGAUUAAAGGCCAUUUUUAAAACUUAAAAACUCAACACCUCACAGAUUAUAAUAGAAAAAGAAAUGGCCUCAGUU,0.432
CCUAUUUAUGGGGUCUGACCAACUGCACCCACUCCCUAAUAAAUUCAUUCUCCUUGGGAGCCUCCUUCUCCUCUUUGUUGGGAAAUAUUUUUAGCUCUUGGCGGGCUCAA,0.529
UCCCCUGCUAGAUGAUUCACCCACAAACCUUCCCACCCAGGUGUUCUCUGAAAGCUUAGCCUCAAGGGAACACCUAAAGAGCUCCCCUACAUAGACUCCUGCCUCCAGGU,1.04
AGCUAAUGUGUACAGGUGUCCUGGAGCCCCAGCUUGCUGCCUGGGGUCUUCGGGGGGAGGGGGGCUUUUGAGUGGGUGUUGCCUACAGAGAAGCUGCCUCUGUAGAGUGG,0.517
CACACGAAAGCUAAGCUGGUGGCCUUCCCCGCCAGCCCCUCGCAGGAUGGGGGUUUCAAUGUGAAACAUAUGCCAGUUUUUGUUCUUUUUUUUUUUUUUUAUGCUGCUUU,1.38
GAGGUGGACCCCGAAACGGACGGCCCGGAGCCCGCACCAGCCCCGCGCCUACCCGGGCCGCCCCCGCGGCCUGGCCCUCGGCGCGGGCUCCUUCCCGCUUCCCCCGACUU,0.349
AAUGGUAUAUCCACUGACAGCUUGCACCAUGCACCUGGAAAAGCCACAGACACUCAACGCCAGCCUGUAAAAGCAACCGAGAAGUAGGCUGUACCCUGCAAUGCCAUAGG,1.56
GGCAGAGCAGGCUGCCCAGCCGAAGCGGGAAGGGCAUGUUGGGCAAGCUGCUGGAGCGACUGAUGUACAGUUGUUAUUUGUCUAUAAAUGGAGCUGUUUAUGGCAAUUUA,0.895
CGGCCUACACUCUCCAACACAAUCCAGAGGCCACAACUAGGUCCCACAGCUAAUUUACCCCUGGAGAUGGGCUCAGGACAGCUGCCUACCCUAGUCUCACCAAUCGUGGA,0.451
CUCUGAAGUUAUAAUGCUUUGGUCUCUACAUUAGGGGCAAGAUCCAGUCUGAGAGAAGUCUCCUUUGAGAAGGGCCAAGAGGCUCUUUCCUGAGUGUUUGCUUUCGGUUU,0.82

# Repeated from above (series 4):
Molecule,lacZ reporter activity
B10 (RNF17 RING domain),0
B9 (RNF115 RING domain),0
B6 (MARCHF2 RING domain),0
B8 (RNF130 RING domain),0
B4 (RFPL3 RING domain),0
B11 (TRIM34 RING domain),0
B7 (TRIM28 RING domain),0
FLSKVEETFQCICCQELVFRPITTVCQHNVCKDCLDRSFRAQVFSCPACRYDLGRSYAMQ (UHRF1 RING domain (UniProt Q96T88)),0
B1 (ARIH1 RING domain),0
B3 (RNF32 RING domain),0
